# Assay results of several laboratories.
# ± gives the spread as reported.
# Cyp2b1: Cytochrome P450 2B1 (Cyp2b1, Rattus norvegicus, UniProt P00176)
# UniProt P00176, sequence (whole entry, looked up): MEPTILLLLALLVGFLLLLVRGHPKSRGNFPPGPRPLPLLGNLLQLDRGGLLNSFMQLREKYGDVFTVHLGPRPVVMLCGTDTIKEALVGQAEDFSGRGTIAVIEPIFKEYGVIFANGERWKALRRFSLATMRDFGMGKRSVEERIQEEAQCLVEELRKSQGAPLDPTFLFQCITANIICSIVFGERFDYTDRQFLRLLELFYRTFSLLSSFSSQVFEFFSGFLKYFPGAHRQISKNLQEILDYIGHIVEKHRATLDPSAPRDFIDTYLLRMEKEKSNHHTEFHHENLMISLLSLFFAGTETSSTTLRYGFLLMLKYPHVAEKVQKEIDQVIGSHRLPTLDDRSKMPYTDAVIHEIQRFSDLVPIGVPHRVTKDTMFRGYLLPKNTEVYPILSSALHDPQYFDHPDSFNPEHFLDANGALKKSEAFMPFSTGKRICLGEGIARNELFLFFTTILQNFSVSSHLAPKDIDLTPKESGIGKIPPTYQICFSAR
# SLC10A1: Hepatic sodium/bile acid cotransporter (SLC10A1, Homo sapiens, UniProt Q14973)
# UniProt Q14973, sequence (whole entry, looked up): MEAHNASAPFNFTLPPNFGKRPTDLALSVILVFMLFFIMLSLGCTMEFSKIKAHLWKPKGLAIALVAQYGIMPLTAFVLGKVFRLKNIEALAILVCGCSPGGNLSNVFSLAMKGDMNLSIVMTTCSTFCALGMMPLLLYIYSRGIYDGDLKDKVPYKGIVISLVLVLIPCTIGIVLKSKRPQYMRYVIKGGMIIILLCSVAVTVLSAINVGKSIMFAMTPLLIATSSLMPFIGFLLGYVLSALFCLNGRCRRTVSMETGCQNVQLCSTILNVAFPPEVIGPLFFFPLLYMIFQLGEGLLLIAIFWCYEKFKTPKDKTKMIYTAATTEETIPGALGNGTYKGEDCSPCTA
# CDK2: Cyclin-dependent kinase 2 (CDK2, Homo sapiens, UniProt P24941)
# UniProt O15379, sequence (whole entry, looked up): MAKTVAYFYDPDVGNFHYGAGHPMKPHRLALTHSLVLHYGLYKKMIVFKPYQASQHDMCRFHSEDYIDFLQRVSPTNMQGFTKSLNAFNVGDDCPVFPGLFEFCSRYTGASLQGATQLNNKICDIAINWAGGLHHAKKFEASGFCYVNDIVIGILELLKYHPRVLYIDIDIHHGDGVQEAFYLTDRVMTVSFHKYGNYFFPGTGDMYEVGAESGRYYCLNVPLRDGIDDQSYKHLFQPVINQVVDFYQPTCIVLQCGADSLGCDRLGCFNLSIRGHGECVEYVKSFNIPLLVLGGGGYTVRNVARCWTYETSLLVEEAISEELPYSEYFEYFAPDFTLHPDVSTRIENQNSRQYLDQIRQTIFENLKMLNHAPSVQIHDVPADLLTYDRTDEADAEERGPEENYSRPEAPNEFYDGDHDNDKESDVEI
# UniProt P29275, sequence (whole entry, looked up): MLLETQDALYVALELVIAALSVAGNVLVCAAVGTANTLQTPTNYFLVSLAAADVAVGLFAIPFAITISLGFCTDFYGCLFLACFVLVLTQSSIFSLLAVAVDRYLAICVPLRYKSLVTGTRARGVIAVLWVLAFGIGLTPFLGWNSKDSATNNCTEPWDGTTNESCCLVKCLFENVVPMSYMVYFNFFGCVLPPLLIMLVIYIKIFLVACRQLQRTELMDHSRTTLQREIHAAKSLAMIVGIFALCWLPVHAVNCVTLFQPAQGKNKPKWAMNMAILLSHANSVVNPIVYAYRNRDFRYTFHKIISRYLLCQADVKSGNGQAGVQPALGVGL
Compound,target or system,assay,test system,setting,scale,measurement,result
C#Cc1ccc2oc(-c3ccccc3)cc(=O)c2c1,Cyp2b1,fluorimetric PROD,recombinant supersomes,"6 min, pH 7.6, with: pentoxyresorufin",,Ki,> 25 µM
CCN(CC)CCCC(C)Nc1ccnc2cc(Cl)ccc12 (stereo not drawn),SLC10A1,"taurocholate uptake, inhibitor",NTCP-expressing HEK293,with: 10 µM taurocholate,,Ki,336 ± 101 µM
C#Cc1ccc2cc(-c3ccccc3)c(=O)oc2c1,Cyp2b1,fluorimetric PROD,recombinant supersomes,"6 min, pH 7.6, with: pentoxyresorufin",,Ki,> 25 µM
CNC(=C[N+](=O)[O-])NCCSCc1csc(CN(C)C)n1,SLC10A1,"taurocholate uptake, inhibitor",NTCP-expressing HEK293,with: 10 µM taurocholate,,Ki,929 ± 3320 µM
CCn1c(SCC(=O)Nc2ccccc2OC)nnc1-c1c[nH]c2ccccc12,"Cyclin-dependent kinase 2, with cyclin A (CDK2, Homo sapiens, UniProt P24941)",,,,,Kd,> 100 µM
CCOc1cc(-c2nncn2C)ccc1Nc1ncc2cc(C)nc(NCC(C)(C)C)c2n1,CDK2,,,,,Ki,0.051 µM
O=c1n(CCCN2CCN(c3cccc(Cl)c3)CC2)nc2ccccn12,"ADORA2B (Homo sapiens, UniProt P29275)",,,,,Ki,> 10 µM
C#Cc1ccc(-c2cc(=O)c3ccccc3o2)cc1,Cyp2b1,fluorimetric PROD,recombinant supersomes,"6 min, pH 7.6, with: pentoxyresorufin",,Ki,> 25 µM
Nc1nc2c(ncn2COCCO)c(=O)[nH]1,SLC10A1,"taurocholate uptake, inhibitor",NTCP-expressing HEK293,with: 10 µM taurocholate,,Ki,202 ± 52 µM
Cn1cc(-c2ccc(-c3cncc(Cl)c3N3CCC4(CCNC4=O)CC3)cc2)cn1,COLO 205,"microarray, item: KITLG",,"concentration not given, 6 h, gene set MGF",baseline: untreated cells,fold change in expression,2.53
O=C(COc1ccccc1[N+](=O)[O-])Nc1ccccc1N1CCOCC1,CDK2,binding,,,,Kd,> 100 µM
O=C(NO)c1cncc(OS(=O)(=O)Oc2ccc(-n3ccnc3)cc2)c1,"Histone deacetylase 3, with NCoR2 DAD (HDAC3, Homo sapiens, UniProt O15379)","enzyme activity, inhibitor, fluorogenic",,,,Ki,0.405 µM
